Measured values collected from several papers.
Chromobox protein homolog 8: Chromobox protein homolog 8 (Homo sapiens, UniProt Q9HC52)
UniProt Q9HC52, sequence (whole entry, looked up): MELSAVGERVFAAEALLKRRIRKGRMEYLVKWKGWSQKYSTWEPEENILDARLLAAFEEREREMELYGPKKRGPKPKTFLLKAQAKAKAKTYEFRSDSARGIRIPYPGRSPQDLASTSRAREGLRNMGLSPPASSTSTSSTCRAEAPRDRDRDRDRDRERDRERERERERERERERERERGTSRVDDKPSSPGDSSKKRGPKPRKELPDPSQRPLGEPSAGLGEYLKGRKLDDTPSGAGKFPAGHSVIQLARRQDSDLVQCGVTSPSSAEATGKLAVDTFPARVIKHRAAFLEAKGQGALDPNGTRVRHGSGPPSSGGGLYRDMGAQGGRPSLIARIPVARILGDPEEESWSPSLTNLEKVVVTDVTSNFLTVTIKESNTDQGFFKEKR
CA12: Carbonic anhydrase 12 (CA12, Homo sapiens, UniProt O43570)
UniProt O43570, sequence (whole entry, looked up): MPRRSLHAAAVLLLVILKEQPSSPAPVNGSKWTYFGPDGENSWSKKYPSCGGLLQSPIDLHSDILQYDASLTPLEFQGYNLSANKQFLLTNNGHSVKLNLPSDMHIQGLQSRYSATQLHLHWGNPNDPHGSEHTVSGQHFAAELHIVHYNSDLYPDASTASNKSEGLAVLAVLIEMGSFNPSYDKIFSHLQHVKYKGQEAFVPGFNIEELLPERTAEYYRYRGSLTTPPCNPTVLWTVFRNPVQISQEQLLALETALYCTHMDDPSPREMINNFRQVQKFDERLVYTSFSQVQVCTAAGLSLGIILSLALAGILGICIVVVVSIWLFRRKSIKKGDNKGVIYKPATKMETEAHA
Capn2: Calpain-2 catalytic subunit (Capn2, Mus musculus, UniProt O08529)
UniProt O08529, sequence (whole entry, looked up): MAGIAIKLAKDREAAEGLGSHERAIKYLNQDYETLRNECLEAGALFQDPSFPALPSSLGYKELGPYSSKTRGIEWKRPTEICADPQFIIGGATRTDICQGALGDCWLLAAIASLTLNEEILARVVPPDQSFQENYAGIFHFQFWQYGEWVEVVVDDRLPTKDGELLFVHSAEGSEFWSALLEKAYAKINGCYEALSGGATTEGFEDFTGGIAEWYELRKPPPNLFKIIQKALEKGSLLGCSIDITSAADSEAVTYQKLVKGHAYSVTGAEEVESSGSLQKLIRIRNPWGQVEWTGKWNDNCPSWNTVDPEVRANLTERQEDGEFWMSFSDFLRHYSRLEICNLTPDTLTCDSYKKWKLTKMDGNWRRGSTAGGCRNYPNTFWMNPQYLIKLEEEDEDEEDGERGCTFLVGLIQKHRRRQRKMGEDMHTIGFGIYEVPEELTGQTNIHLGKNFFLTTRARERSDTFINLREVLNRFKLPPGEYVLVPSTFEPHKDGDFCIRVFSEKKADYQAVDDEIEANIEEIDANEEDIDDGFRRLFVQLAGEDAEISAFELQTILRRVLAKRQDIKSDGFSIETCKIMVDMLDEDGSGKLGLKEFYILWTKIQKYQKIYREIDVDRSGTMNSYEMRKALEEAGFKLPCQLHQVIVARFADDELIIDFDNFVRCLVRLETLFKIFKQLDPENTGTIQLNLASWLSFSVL
Chromobox protein homolog 6: Chromobox protein homolog 6 (Homo sapiens, UniProt O95503)
UniProt O95503, sequence (whole entry, looked up): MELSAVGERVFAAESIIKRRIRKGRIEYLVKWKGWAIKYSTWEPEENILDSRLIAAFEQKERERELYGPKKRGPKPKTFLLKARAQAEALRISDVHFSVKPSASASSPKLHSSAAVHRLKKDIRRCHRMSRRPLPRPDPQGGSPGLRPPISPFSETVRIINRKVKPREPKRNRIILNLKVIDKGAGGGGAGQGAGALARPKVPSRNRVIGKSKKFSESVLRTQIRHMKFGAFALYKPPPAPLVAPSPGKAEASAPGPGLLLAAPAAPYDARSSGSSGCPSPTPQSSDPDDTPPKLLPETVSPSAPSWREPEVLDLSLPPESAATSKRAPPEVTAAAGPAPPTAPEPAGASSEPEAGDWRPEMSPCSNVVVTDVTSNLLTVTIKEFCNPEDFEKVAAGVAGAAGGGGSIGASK
UniProt Q16539, sequence (whole entry, looked up): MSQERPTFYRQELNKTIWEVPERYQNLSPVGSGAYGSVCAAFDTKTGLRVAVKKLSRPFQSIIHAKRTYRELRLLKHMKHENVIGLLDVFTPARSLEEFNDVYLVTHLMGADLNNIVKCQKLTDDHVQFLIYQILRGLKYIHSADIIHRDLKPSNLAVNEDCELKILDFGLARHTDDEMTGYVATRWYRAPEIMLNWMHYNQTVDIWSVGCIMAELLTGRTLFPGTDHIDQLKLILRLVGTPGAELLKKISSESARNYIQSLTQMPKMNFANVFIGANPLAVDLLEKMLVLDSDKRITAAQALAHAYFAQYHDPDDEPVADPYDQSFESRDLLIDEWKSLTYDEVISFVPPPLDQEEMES
UniProt Q02790, sequence (whole entry, looked up): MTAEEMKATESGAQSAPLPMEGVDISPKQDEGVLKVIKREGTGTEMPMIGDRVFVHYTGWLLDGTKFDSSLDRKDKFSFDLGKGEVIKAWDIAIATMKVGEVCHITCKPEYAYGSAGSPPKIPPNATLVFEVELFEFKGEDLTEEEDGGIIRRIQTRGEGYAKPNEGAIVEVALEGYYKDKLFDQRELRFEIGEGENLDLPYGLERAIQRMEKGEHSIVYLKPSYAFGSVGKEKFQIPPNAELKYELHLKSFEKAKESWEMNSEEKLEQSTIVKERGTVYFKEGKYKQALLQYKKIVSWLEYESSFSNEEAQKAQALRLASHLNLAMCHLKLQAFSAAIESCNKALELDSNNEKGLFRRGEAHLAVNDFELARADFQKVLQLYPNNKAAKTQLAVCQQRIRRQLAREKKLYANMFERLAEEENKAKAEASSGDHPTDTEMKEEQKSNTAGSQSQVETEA
UniProt Q02127, sequence (whole entry, looked up): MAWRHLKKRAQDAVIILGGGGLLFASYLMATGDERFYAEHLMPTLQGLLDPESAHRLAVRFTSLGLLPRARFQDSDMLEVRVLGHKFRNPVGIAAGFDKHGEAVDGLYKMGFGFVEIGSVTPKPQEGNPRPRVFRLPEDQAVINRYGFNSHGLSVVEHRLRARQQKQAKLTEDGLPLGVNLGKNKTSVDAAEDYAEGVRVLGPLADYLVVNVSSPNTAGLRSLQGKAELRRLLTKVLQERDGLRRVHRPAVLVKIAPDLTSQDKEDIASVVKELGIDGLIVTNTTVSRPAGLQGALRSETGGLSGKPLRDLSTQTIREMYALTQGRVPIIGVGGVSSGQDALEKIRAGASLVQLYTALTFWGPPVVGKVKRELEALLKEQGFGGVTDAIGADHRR
UniProt P00519, sequence (whole entry, looked up): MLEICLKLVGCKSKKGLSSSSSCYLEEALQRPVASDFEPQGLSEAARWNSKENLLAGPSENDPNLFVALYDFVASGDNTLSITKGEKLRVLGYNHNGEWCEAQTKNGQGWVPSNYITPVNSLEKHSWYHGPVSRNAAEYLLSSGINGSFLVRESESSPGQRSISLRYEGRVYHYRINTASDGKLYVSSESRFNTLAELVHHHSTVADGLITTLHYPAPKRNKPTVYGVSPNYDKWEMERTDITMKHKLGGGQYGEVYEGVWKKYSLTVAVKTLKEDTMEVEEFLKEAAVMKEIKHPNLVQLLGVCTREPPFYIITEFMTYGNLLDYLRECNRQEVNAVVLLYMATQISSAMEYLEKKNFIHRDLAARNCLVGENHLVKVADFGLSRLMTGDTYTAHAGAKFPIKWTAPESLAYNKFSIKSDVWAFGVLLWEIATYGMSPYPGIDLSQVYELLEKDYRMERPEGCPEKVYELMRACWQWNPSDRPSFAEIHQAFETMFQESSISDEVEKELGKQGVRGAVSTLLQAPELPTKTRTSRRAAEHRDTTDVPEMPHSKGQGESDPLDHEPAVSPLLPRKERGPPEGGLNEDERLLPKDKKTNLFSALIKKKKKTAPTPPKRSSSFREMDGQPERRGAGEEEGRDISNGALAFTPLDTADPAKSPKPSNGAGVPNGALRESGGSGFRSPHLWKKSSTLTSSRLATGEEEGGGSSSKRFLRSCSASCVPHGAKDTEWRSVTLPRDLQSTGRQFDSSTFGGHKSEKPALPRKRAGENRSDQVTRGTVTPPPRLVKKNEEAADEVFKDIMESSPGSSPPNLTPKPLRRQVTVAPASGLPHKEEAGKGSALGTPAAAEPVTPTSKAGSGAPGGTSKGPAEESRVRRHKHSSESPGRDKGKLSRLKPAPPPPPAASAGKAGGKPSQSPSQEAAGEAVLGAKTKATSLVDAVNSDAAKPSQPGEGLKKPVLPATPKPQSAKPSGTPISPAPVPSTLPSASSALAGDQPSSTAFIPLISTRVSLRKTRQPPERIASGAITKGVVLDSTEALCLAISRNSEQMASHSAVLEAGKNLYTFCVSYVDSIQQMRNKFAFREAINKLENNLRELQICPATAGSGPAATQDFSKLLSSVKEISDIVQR

SMILES	target	assay	system	setting	how to read	selectivity ratio
CCN(CC)CCCC[C@H](NC(=O)[C@@H](NC(=O)[C@H](C)NC(=O)[C@H](Cc1ccccc1)NC(=O)c1ccc(C(F)(F)F)cc1)C1CCCC1)C(=O)N[C@@H](CO)C(N)=O	Chromobox protein homolog 8	competitive fluorescence polarization	–	–	reference: Cbx7 over Chromobox protein homolog 8	12 fold
NS(=O)(=O)c1c(F)c(F)c(S(=O)(=O)CCO)c(NCc2ccccc2)c1F	CA12	thermal shift	–	–	reference: Kd CA XII over Kd CA II	0.3
CCC(NC(=O)C(CC(C)C)NC(=O)NCc1ccccc1)C(=O)C(=O)NCc1cc(F)cc(OC)c1 (stereo not drawn)	Capn2	–	mouse pons-cerebellum membranes	added: calcium 2 mM	reference: IC50 calpain-1 over calpain-2	1.9
NS(=O)(=O)c1c(F)c(F)c(SCCO)c(NC(c2ccccc2)C(O)c2ccccc2)c1F (stereo not drawn)	CA12	thermal shift	–	–	reference: Kd CA XII over Kd CA II	0.3
CCC(NC(=O)C(CC(C)C)NC(=O)CCc1ccccc1)C(=O)C(=O)NCc1cc(F)cc(OC)c1 (stereo not drawn)	Capn2	–	mouse pons-cerebellum membranes	added: calcium 2 mM	reference: IC50 calpain-1 over calpain-2	31.7
COc1ccc(CC[C@H]2OC(=O)[C@@H]3CCCCN3C(=O)C(=O)C(C)(C)COC(=O)/C=C/CCN(C)C(=O)[C@H](CC(C)C)N(C)C(=O)[C@@H]3CCCN3C(=O)[C@H](Cc3ccccc3)N(C)C(=O)[C@H](c3ccccc3)NC(=O)CCC(=O)Nc3cccc2c3)cc1OC	FKBP4 (Homo sapiens, UniProt Q02790)	enzyme activity, inhibitor	–	–	reference: FKBP12 potency over FKBP4 potency	~40 fold
COc1cccc(/C(C)=N/NC(=O)CSc2nc3ccccc3c(=O)n2CCc2ccc(S(N)(=O)=O)cc2)c1	CA12	inhibitor, stopped-flow	–	–	reference: Ki hCA II over Ki hCA XII	0.7
Cc1cc(S(N)(=O)=O)c(Cl)cc1NC1CCCCC1	CA12	thermal shift	–	–	reference: Kd CA II over Kd CA XII	12
CC(C)[C@H](NC(=O)[C@H](Cc1ccccc1)NC(=O)c1ccc(C(C)(C)C)cc1)C(=O)N[C@@H](CCCN1CCOCC1)C(=O)N[C@@H](CCCCN(C)C1CC2CCC1C2)C(=O)N[C@@H](CO)C(N)=O (stereo partly drawn)	Chromobox protein homolog 8	TR-FRET	–	–	reference: CBX8 over CBX7	58 fold
NS(=O)(=O)c1cc(C(=O)NCCCC(=O)O)c(NC2CCCCC2)cc1Cl	CA12	fluorescent thermal shift	–	–	reference: Kd other CA isoforms over CA XII	≤ 10000 fold
C[C@H](NC(=O)[C@H](Cc1ccccc1)NC(=O)c1ccc(C(F)(F)F)cc1)C(=O)N[C@H](C(=O)N[C@@H](CCCC[N+](C)(C)C)C(=O)N[C@@H](CO)C(N)=O)C1CCCC1	Chromobox protein homolog 6	competitive fluorescence polarization	–	–	reference: Cbx7 over Chromobox protein homolog 6	9 fold
CN(C)CCNC(=O)c1cccc2c(NCCCCc3c(N)nc(N)nc3N)c3ccccc3nc12	RNA G, G–G mismatch	binding, ITC	–	–	reference: Kd RNA A over Kd RNA G	29
NS(=O)(=O)c1ccc(Nc2nc3nccc(-c4ccc5ccccc5c4)n3n2)cc1	CA12	stopped-flow CO2 hydrase	–	–	reference: Ki hCA I over Ki CA12	94
COC(=O)[C@@]1(C)C=C(C(=O)Nc2cccc(C(=O)Nc3ccc(Nc4nccc(-c5cccnc5)n4)c(C)c3)c2)C(=O)CC1	MAPK14 (Homo sapiens, UniProt Q16539)	–	–	–	reference: JNK1 over MAPK14	~1000 fold
COc1ccccc1/C=N/NC(=O)CSc1nc2ccccc2c(=O)n1CCc1ccc(S(N)(=O)=O)cc1	CA12	inhibitor, stopped-flow	–	–	reference: Ki hCA I over Ki hCA XII	25.6
CN1C[C@H](c2cccc(C(F)(F)F)c2)[C@@H](C(=O)Nc2ccccc2F)C1=O	DHODH (Homo sapiens, UniProt Q02127)	enzyme activity, DCPIP colorimetric	–	–	reference: IC50 human over Setaria italica	~100 fold
CNc1c(F)c(S(N)(=O)=O)c(F)c(F)c1S(=O)(=O)CCc1ccccc1	CA12	binding	–	–	reference: Kd CA II over Kd CA XII	49
NC(=O)C1CCNC(=O)C(CCCNC(=O)c2cnccn2)NC(=O)C(Cc2ccco2)NC(=O)C(CC2CC2)NC(=O)C=CC(=O)N1 (stereo not drawn)	ABL1 (Homo sapiens, UniProt P00519)	kinase activity	–	–	reference: Abl IC50 over Src IC50	> 50 fold
COC(=O)CCCNC(=O)c1cc(S(N)(=O)=O)c(Cl)cc1NC1CCCCC1	CA12	thermal shift	–	–	reference: Kd CA II over Kd CA XII	27
C[C@H](NC(=O)[C@H](Cc1ccccc1)NC(=O)c1ccc(C(C)(C)C)cc1)C(=O)N[C@H](C(=O)N[C@@H](CCCC[N+](C)(C)C)C(=O)N[C@@H](CO)C(N)=O)C1CCCC1	Chromobox protein homolog 6	competitive fluorescence polarization	–	–	reference: Cbx7 over Chromobox protein homolog 6	8.5 fold
CCC(NC(=O)C(CC(C)C)NC(=O)CCc1ccccc1)C(=O)C(=O)NCc1cccc(OC)c1 (stereo not drawn)	Capn2	–	mouse pons-cerebellum membranes	added: calcium 2 mM	reference: IC50 calpain-1 over calpain-2	24.1
C[C@@H](N)C1CCN(S(=O)(=O)c2cccc3c(=O)[nH]ccc23)CC1	ROCK2 (Homo sapiens, UniProt O75116)	enzyme activity, inhibitor, radiometric filter binding	–	added: ATP at Km	reference: IC50 ROCK1 over IC50 target	17 fold
CCC(NC(=O)C(CC(C)C)NC(=O)CCc1ccccc1)C(=O)C(=O)NCc1cc(OC)cc(OC)c1 (stereo not drawn)	Capn2	–	mouse pons-cerebellum membranes	added: calcium 2 mM	reference: IC50 calpain-1 over calpain-2	14.9
NS(=O)(=O)c1cc(C(=O)NCCCC(=O)O)c(S(=O)(=O)c2ccccc2)cc1Cl	CA12	thermal shift	–	–	reference: Kd CA XII over Kd CA II	0.4
COc1ccc(/C(C)=N/NC(=O)CSc2nc3ccccc3c(=O)n2CCc2ccc(S(N)(=O)=O)cc2)cc1	CA12	inhibitor, stopped-flow	–	–	reference: Ki hCA II over Ki hCA XII	2.19
NS(=O)(=O)c1c(F)c(F)c(S(=O)(=O)CCc2ccccc2)c(N2CCOCC2)c1F	CA12	thermal shift	–	–	reference: Kd CA XII over Kd CA II	125
CCC(NC(=O)C(CC(C)C)NC(=O)NCc1ccc(C#N)cc1)C(=O)C(=O)NCc1cc(OC)cc(OC)c1 (stereo not drawn)	Capn2	–	mouse pons-cerebellum membranes	added: calcium 2 mM	reference: IC50 calpain-1 over calpain-2	2.4

For quick reference, copied from above:
SMILES	target	assay	system	setting	how to read	selectivity ratio
NS(=O)(=O)c1cc(C(=O)NCCCC(=O)O)c(S(=O)(=O)c2ccccc2)cc1Cl	CA12	thermal shift	–	–	reference: Kd CA XII over Kd CA II	0.4
COc1ccc(/C(C)=N/NC(=O)CSc2nc3ccccc3c(=O)n2CCc2ccc(S(N)(=O)=O)cc2)cc1	CA12	inhibitor, stopped-flow	–	–	reference: Ki hCA II over Ki hCA XII	2.19
NS(=O)(=O)c1c(F)c(F)c(S(=O)(=O)CCc2ccccc2)c(N2CCOCC2)c1F	CA12	thermal shift	–	–	reference: Kd CA XII over Kd CA II	125
